Measured values from different studies.
Compare with care: the assays were run in different laboratories. Numbers after ± are the reported error.
Urea transporter 1: Urea transporter 1 (Homo sapiens, UniProt Q13336)
Sequence of UniProt Q13336 (whole entry, looked up): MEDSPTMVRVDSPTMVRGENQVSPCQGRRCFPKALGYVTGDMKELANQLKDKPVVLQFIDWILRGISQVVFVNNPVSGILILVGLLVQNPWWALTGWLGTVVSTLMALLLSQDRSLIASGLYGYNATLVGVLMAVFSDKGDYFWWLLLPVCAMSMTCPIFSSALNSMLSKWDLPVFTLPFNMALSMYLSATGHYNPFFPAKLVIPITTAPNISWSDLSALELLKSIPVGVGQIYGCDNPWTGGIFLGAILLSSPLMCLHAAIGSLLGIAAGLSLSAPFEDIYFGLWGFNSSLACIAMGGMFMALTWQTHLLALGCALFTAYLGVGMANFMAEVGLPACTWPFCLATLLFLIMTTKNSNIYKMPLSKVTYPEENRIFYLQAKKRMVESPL
IDE: Insulin-degrading enzyme (IDE, Homo sapiens, UniProt P14735)
PLEKHA6 PH domain: Pleckstrin homology domain-containing family A member 6, PH domain (PLEKHA6, Homo sapiens, UniProt Q9Y2H5)
Sequence of UniProt Q9Y2H5 (whole entry, looked up): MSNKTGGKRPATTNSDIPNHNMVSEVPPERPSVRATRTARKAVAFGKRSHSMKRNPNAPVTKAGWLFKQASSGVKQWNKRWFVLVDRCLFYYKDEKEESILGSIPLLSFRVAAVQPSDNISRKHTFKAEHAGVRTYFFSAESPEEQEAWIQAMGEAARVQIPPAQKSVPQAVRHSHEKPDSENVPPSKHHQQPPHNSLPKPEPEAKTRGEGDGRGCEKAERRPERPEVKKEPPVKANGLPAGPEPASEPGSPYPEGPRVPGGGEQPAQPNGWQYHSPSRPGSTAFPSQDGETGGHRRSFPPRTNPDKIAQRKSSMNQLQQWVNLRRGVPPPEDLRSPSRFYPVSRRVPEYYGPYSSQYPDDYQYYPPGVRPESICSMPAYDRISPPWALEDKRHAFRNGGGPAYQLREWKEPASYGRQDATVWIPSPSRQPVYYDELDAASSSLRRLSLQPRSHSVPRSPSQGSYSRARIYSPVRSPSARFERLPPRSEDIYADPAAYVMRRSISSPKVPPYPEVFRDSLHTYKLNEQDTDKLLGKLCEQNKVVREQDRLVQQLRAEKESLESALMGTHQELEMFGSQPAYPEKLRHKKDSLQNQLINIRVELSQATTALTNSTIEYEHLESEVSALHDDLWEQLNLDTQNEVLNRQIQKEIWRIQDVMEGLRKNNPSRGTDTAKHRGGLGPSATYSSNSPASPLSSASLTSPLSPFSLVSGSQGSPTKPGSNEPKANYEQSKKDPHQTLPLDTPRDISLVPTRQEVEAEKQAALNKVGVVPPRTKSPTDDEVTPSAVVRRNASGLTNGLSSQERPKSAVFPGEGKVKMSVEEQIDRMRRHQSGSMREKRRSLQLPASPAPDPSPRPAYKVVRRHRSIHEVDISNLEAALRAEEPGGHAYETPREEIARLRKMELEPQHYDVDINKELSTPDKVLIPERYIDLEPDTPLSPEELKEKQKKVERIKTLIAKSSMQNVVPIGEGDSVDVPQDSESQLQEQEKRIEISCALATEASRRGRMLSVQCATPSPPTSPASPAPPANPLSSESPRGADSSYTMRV
CYP2E1: Cytochrome P450 2E1 (CYP2E1, Homo sapiens, UniProt P05181)
Sequence of UniProt P05181 (whole entry, looked up): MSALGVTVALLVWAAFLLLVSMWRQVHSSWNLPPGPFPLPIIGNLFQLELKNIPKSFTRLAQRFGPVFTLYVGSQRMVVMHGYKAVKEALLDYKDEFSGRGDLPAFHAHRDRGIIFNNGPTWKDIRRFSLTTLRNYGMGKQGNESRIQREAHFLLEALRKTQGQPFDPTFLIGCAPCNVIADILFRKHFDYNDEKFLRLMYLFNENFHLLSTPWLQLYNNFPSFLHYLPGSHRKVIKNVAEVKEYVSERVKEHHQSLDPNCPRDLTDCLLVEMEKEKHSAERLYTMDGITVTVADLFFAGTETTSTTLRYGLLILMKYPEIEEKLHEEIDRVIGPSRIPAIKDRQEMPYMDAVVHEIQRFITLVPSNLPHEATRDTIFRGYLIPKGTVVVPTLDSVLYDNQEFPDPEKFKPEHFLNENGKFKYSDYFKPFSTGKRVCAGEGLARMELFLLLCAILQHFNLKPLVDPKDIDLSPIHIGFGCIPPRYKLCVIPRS
ELAVL1: ELAV-like protein 1 (ELAVL1, Homo sapiens, UniProt Q15717)
Sequence of UniProt Q15717 (whole entry, looked up): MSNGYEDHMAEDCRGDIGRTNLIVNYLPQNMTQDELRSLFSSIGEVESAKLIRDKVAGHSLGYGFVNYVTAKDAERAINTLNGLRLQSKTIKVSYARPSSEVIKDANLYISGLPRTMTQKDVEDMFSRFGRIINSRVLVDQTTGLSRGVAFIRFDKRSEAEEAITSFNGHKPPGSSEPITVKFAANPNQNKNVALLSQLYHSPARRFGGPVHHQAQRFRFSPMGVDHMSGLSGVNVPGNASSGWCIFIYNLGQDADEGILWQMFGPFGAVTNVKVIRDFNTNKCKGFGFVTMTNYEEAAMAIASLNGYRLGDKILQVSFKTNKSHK
Sequence of UniProt Q9Y6L6 (whole entry, looked up): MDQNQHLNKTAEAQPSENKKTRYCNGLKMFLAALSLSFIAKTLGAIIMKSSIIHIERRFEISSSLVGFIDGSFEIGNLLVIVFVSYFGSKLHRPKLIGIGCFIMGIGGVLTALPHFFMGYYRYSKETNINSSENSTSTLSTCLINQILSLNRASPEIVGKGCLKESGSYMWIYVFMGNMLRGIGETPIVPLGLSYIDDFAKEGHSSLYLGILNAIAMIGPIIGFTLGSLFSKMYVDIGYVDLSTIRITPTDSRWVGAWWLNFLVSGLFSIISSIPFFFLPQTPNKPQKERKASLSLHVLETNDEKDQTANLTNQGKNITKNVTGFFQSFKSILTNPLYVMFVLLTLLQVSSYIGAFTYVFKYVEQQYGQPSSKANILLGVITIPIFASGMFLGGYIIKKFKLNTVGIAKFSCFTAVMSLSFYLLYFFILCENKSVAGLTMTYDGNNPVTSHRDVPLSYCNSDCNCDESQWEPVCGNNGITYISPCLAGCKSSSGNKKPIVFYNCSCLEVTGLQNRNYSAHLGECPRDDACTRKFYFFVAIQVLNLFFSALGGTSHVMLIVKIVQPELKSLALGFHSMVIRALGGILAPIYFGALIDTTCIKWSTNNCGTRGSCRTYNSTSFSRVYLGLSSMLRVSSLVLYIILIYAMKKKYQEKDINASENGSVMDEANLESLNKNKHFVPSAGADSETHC
Sequence of UniProt P48039 (whole entry, looked up): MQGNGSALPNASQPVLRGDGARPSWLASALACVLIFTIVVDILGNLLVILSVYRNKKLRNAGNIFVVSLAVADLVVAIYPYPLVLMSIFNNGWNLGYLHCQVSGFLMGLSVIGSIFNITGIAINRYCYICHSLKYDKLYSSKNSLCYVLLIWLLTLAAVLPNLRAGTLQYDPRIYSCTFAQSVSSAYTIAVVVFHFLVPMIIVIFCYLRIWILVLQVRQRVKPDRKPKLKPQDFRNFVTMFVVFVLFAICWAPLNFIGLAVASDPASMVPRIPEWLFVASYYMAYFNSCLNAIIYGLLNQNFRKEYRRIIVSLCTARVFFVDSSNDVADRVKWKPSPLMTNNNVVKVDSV
Sequence of UniProt Q96NT5 (whole entry, unmodified, looked up): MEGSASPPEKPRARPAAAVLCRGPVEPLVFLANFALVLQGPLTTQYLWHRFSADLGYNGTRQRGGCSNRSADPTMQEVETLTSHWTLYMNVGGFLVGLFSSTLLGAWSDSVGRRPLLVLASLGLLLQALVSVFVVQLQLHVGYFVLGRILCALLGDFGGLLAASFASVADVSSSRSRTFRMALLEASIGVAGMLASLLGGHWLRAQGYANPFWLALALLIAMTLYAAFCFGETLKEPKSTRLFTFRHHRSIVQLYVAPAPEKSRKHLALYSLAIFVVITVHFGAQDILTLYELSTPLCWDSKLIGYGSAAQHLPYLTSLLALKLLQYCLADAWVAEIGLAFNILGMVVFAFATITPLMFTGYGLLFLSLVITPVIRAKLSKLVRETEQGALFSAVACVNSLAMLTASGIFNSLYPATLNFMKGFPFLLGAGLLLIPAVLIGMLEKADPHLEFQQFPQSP
Sequence of UniProt P52790 (whole entry, unmodified, looked up): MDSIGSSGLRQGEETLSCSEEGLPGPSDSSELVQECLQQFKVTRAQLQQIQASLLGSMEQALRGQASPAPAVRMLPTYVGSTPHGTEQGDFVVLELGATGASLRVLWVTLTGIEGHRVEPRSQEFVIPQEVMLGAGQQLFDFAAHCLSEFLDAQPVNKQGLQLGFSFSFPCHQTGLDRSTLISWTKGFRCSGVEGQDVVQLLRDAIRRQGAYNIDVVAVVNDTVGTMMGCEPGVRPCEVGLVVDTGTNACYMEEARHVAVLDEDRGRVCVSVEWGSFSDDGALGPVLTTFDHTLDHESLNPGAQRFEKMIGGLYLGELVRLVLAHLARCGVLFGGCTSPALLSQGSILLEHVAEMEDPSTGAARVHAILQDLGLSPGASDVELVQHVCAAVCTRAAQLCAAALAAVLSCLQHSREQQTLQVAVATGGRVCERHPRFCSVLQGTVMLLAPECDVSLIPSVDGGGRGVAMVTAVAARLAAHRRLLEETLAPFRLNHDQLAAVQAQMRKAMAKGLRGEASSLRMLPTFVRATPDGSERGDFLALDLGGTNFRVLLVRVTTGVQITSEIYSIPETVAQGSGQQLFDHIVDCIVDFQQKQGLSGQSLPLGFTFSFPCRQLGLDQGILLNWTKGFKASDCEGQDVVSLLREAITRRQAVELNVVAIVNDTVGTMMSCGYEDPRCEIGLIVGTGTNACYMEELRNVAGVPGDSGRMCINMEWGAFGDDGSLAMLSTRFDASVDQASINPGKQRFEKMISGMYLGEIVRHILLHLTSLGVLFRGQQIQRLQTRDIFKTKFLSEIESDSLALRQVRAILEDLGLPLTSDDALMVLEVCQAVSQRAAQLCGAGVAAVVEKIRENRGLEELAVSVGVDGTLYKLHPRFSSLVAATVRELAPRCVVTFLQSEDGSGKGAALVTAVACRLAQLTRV

CC1CCC(CC(=O)Nc2nnc(S(N)(=O)=O)s2)CC1 (stereo not drawn)
Ki (Enterococcus faecium γ-carbonic anhydrase; CO2 hydration, inhibitor, stopped-flow kinetics): 0.337 µM

CCCCN1CCC(COC(=O)c2ccc(N)c(OCF)c2)CC1
Ki (benzodiazepine site (rat); binding; rat brain): > 10 µM

CCCCC(N)=O
Ki (Urea transporter 1; urea transport inhibition; together with: thiourea): 20000 µM

Cc1ccccc1-c1ccc([C@@H]2[C@@H](CO)N3CCCCN(C(=O)c4cccnc4)C[C@@H]23)cc1
EC50 (IDE; enzyme activity, inhibitor, fluorogenic kinetic; together with: Mca-RPPGFSAFK(Dnp)-OH substrate): 13 µM

Cc1ccc(-c2csc(NN=Cc3ccc(N4CC(C)CC(C)C4)cc3)n2)cc1 (stereo not drawn)
Ki (alpha-glucosidase; enzyme activity, inhibitor, Lineweaver-Burk plot; together with: p-nitrophenyl-alpha-D-glucopyranoside): 18.7 ± 1.87 µM

CCOc1ccc(C(=O)CC(SCc2cccc(Br)c2)C(=O)O)cc1 (stereo not drawn)
Ki (PLEKHA6 PH domain; PLEKHA6 PI(4,5)P2 binding, fluorescence polarization; together with: BODIPY-PI(4,5)P2 tracer): 36 ± 2.7 µM

CC1CC(C)CN(c2ccc(C=NNc3nc(-c4ccc(-c5ccccc5)cc4)cs3)cc2)C1 (stereo not drawn)
Ki (alpha-glucosidase; enzyme activity, inhibitor, Lineweaver-Burk plot; together with: p-nitrophenyl-alpha-D-glucopyranoside): 9.33 ± 0.85 µM

Cc1cccc(C(=O)Nc2nnc(S(N)(=O)=O)s2)c1
Ki (Enterococcus faecium γ-carbonic anhydrase; CO2 hydration, inhibitor, stopped-flow kinetics): 0.124 µM

CNC(=O)NC
Ki (Urea transporter 1; urea transport inhibition; together with: thiourea): 800 µM

Cc1cccc(-c2ccc([C@@H]3[C@@H](CO)N4CCCCN(S(=O)(=O)c5cccc(C)c5)C[C@@H]34)cc2)c1
EC50 (IDE; enzyme activity, inhibitor, fluorogenic kinetic; together with: Mca-RPPGFSAFK(Dnp)-OH substrate): 1 µM

CCOc1ccc(C(=O)CC(SCc2ccc(Cl)cc2)C(=O)O)cc1OCC (stereo not drawn)
Ki (PLEKHA6 PH domain; PLEKHA6 PI(4,5)P2 binding, fluorescence polarization; together with: BODIPY-PI(4,5)P2 tracer): 86.5 ± 3.1 µM

NS(=O)(=O)c1nnc(NC(=O)C2CC23CCCOC3)s1 (stereo not drawn)
Ki (Enterococcus faecium γ-carbonic anhydrase; CO2 hydration, inhibitor, stopped-flow kinetics): 0.206 µM

CCCCNC(N)=O
Ki (Urea transporter 1; urea transport inhibition; together with: thiourea): 25000 µM

NS(=O)(=O)c1nnc(NC(=O)COC2CCC(F)(F)CC2)s1
Ki (Enterococcus faecium γ-carbonic anhydrase; CO2 hydration, inhibitor, stopped-flow kinetics): 0.194 µM

NC(=S)c1cccnc1
Ki (Urea transporter 1; urea transport inhibition; together with: thiourea): 100 µM

OC[C@H]1OC(O)[C@H](O)[C@@H](O)[C@@H]1O (stereo partly drawn)
Ki (Hexokinase-3 (HK3, Homo sapiens, UniProt P52790, E254A/R267A); substrate inhibition; mutant E254A/R267A, complete substrate inhibition model, together with: ATP 20 mM): 11000 ± 2000 µM

Nc1nc2ncc(CNc3ccc(C(=O)N[C@@H](CCC(=O)O)C(=O)O)cc3)nc2c(=O)[nH]1
Ki (Proton-coupled folate transporter (Homo sapiens, UniProt Q96NT5, H247A); [3H]methotrexate uptake, inhibitor, Dixon plot; transfected cells wt-H247A; pH 5.5, together with: [3H]methotrexate 0.5 µM): 0.12 ± 0.03 µM

CCc1cc(/C(C)=N/OCc2ccc(C3CCCCC3)c(C(F)(F)F)c2)ccc1CN1CC(C(=O)O)C1
Ki (Solute carrier organic anion transporter family member 1B1 (SLCO1B1, Homo sapiens, UniProt Q9Y6L6); inhibitor; HEK293 transfected with SLCO1B1; 3 min, together with: estradiol-17β-glucuronide 1 µM): 0.299 µM

Nc1ncnc2c1ncn2[C@@H]1O[C@H](COP(=O)(O)OP(=O)(O)O)[C@@H](O)[C@H]1O
Ki (klp-6 (Caenorhabditis elegans, UniProt G5EFQ4, F120K); microtubule gliding velocity, competitive inhibitor, single-molecule TIRF; pH 7.4, together with: Mg-ATP varied, porcine microtubules): 242 ± 4 µM

COc1ccc(-c2csc(NN=Cc3ccc(N4CC(C)CC(C)C4)cc3)n2)cc1 (stereo not drawn)
Ki (alpha-glucosidase; enzyme activity, inhibitor, Lineweaver-Burk plot; together with: p-nitrophenyl-alpha-D-glucopyranoside): 10.6 ± 0.89 µM

CCOc1ccc(C(=O)CC(SCc2ccccc2Br)C(=O)O)cc1 (stereo not drawn)
Ki (PLEKHA6 PH domain; PLEKHA6 PI(4,5)P2 binding, fluorescence polarization; together with: BODIPY-PI(4,5)P2 tracer): 61.4 ± 4.5 µM

CC1CC(C)CN(c2ccc(C=NNc3nc(-c4ccc([N+](=O)[O-])cc4)cs3)cc2)C1 (stereo not drawn)
Ki (alpha-glucosidase; enzyme activity, inhibitor, Lineweaver-Burk plot; together with: p-nitrophenyl-alpha-D-glucopyranoside): 4.59 ± 0.32 µM

NS(=O)(=O)c1nnc(NC(=O)CCC2CCC(F)(F)CC2)s1
Ki (Enterococcus faecium γ-carbonic anhydrase; CO2 hydration, inhibitor, stopped-flow kinetics): 0.255 µM

CC(N)=O
Ki (Urea transporter 1; urea transport inhibition; together with: thiourea): 100000 µM

CCc1oc2ccccc2c1C(=O)c1cc(Br)c(O)c(Br)c1
Ki (CYP2E1; p-nitrophenol hydroxylation, nonlinear fit; baculosomes; 10 min): 0.0034 µM

CCOc1ccc(C(=O)CC(SCc2ccc(OC)cc2)C(=O)O)cc1 (stereo not drawn)
Ki (PLEKHA6 PH domain; PLEKHA6 PI(4,5)P2 binding, fluorescence polarization; together with: BODIPY-PI(4,5)P2 tracer): 175 ± 26 µM

COC(=O)c1cc2cc(NC(=O)c3ccccn3)ccc2s1
Ki (ELAVL1; Msi1 binding, inhibitor, fluorescence polarization): > 20 µM

CC1CC(C)CN(c2ccc(C=NNc3nc(-c4ccc(C#N)cc4)cs3)cc2)C1 (stereo not drawn)
Ki (alpha-glucosidase; enzyme activity, inhibitor, Lineweaver-Burk plot; together with: p-nitrophenyl-alpha-D-glucopyranoside): > 100 µM

CCOc1cccc(C(=O)CC(SCc2ccc(Cl)cc2)C(=O)O)c1 (stereo not drawn)
Ki (PLEKHA6 PH domain; PLEKHA6 PI(4,5)P2 binding, fluorescence polarization; together with: BODIPY-PI(4,5)P2 tracer): 44.9 ± 7.6 µM

CCOC(=O)c1cc2cc(NC(=O)c3ccc(C(C)(C)C)cc3)ccc2[nH]1
Ki (ELAVL1; Msi1 binding, inhibitor, fluorescence polarization): > 20 µM

CC1CCCCC1CC(=O)Nc1nnc(S(N)(=O)=O)s1 (stereo not drawn)
Ki (Enterococcus faecium γ-carbonic anhydrase; CO2 hydration, inhibitor, stopped-flow kinetics): 0.225 µM

CNC=O
Ki (Urea transporter 1; urea transport inhibition; together with: thiourea): 100000 µM

CC1CC(C)CN(c2ccc(C=NNc3nc(-c4ccc(Br)cc4)cs3)cc2)C1 (stereo not drawn)
Ki (alpha-glucosidase; enzyme activity, inhibitor, Lineweaver-Burk plot; together with: p-nitrophenyl-alpha-D-glucopyranoside): 24.81 ± 0.15 µM

CCOC(=O)/C=C/c1cc2cc(NC(=O)c3ccc(C(C)(C)C)cc3)ccc2[nH]1
Ki (ELAVL1; Msi1 binding, inhibitor, fluorescence polarization): > 20 µM

CCc1oc2ccccc2c1C(=O)c1cc(I)c(O)c(I)c1
Ki (CYP2E1; p-nitrophenol hydroxylation, nonlinear fit; baculosomes; 10 min): 0.0031 µM

CNC(=S)NC
Ki (Urea transporter 1; urea transport inhibition; together with: thiourea): 300 µM

C[C@H]1CCC[C@H](C(=O)Nc2nnc(S(N)(=O)=O)s2)C1 (racemic)
Ki (Enterococcus faecium γ-carbonic anhydrase; CO2 hydration, inhibitor, stopped-flow kinetics): 0.12 µM

CCc1oc2ccccc2c1C(=O)c1ccc(O)cc1
Ki (CYP2E1; p-nitrophenol hydroxylation, inhibitor; baculosomes; 10 min, with additive 1 µM): 0.57 µM

CCOC(=O)c1cc2cc(NC(=O)c3ccc(N(C)C)cc3)ccc2[nH]1
Ki (ELAVL1; Msi1 binding, inhibitor, fluorescence polarization): 9.48 µM

CCOc1ccccc1C(=O)CC(SCc1ccc(Cl)cc1)C(=O)O (stereo not drawn)
Ki (PLEKHA6 PH domain; PLEKHA6 PI(4,5)P2 binding, fluorescence polarization; together with: BODIPY-PI(4,5)P2 tracer): 83 ± 12 µM

NC(N)=S
Ki (Urea transporter 1; urea transport; inhibitor both sides): 12000 µM

CCOc1ccc(C(=O)CC(SCc2ccc(Cl)cc2)C(=O)OC)cc1 (stereo not drawn)
Ki (PLEKHA6 PH domain; PLEKHA6 PI(4,5)P2 binding, fluorescence polarization; together with: BODIPY-PI(4,5)P2 tracer): > 1000 µM

O=c1n(CCCN2CCN(c3cccc(Cl)c3)CC2)nc2ccccn12
Ki (Melatonin receptor type 1A (MTNR1A, Homo sapiens, UniProt P48039)): > 10 µM

COc1ccc(C(=O)CC(SCc2ccc(Cl)cc2)C(=O)O)cc1 (stereo not drawn)
Ki (PLEKHA6 PH domain; PLEKHA6 PI(4,5)P2 binding, fluorescence polarization; together with: BODIPY-PI(4,5)P2 tracer): 211 ± 18 µM

CC(C)(C(=O)Nc1nnc(S(N)(=O)=O)s1)C1CCCCC1
Ki (Enterococcus faecium γ-carbonic anhydrase; CO2 hydration, inhibitor, stopped-flow kinetics): 0.52 µM

For quick reference, copied from above:
CNC(=O)NC
Ki (Urea transporter 1; urea transport inhibition; together with: thiourea): 800 µM

Cc1cccc(C(=O)Nc2nnc(S(N)(=O)=O)s2)c1
Ki (Enterococcus faecium γ-carbonic anhydrase; CO2 hydration, inhibitor, stopped-flow kinetics): 0.124 µM

Nc1ncnc2c1ncn2[C@@H]1O[C@H](COP(=O)(O)OP(=O)(O)O)[C@@H](O)[C@H]1O
Ki (klp-6 (Caenorhabditis elegans, UniProt G5EFQ4, F120K); microtubule gliding velocity, competitive inhibitor, single-molecule TIRF; pH 7.4, together with: Mg-ATP varied, porcine microtubules): 242 ± 4 µM

CC(N)=O
Ki (Urea transporter 1; urea transport inhibition; together with: thiourea): 100000 µM

CCc1cc(/C(C)=N/OCc2ccc(C3CCCCC3)c(C(F)(F)F)c2)ccc1CN1CC(C(=O)O)C1
Ki (Solute carrier organic anion transporter family member 1B1 (SLCO1B1, Homo sapiens, UniProt Q9Y6L6); inhibitor; HEK293 transfected with SLCO1B1; 3 min, together with: estradiol-17β-glucuronide 1 µM): 0.299 µM
